Measured values gathered from unrelated publications.
Several values in a cell are separate wells, animals, samples, runs or records.
PDGFRB: Platelet-derived growth factor receptor beta (PDGFRB, Homo sapiens, UniProt P09619)

C=CC(=O)N1CCCC(n2c(=O)c3ncccc3n(Cc3ccc(Oc4ccccc4)cc3)c2=O)C1 (stereo not drawn)  remaining binding (PDGFRB; cell-free assay, competition with immobilised ligand; 1 µM): 97%
COc1cc(OC)c(F)c(/C=C/c2cnc3ccn(S(=O)(=O)c4cn(CCF)cn4)c3n2)c1F  inhibition (PDGFRB; 1000 nM): 7.8%
COc1ccc(NC(=O)Nc2ccc3c(c2)C(=O)N(C(C)CO)CC(C)C(CN(C)Cc2ccc4c(c2)OCO4)O3)cc1 (stereo not drawn)  remaining binding (PDGFRB; binding, competition with immobilised ligand; 10 µM): 100%
CN1CCN(Cc2ccc(NC(=O)c3cccc(C#Cc4cnc(N)c5ncccc45)c3)cc2C(F)(F)F)CC1  remaining binding (PDGFRB; cell-free assay, competition with immobilised ligand; 50 nM): 0.2%
C=CC[C@H]1OC(=O)CCNC(=O)[C@H](C)N(C)C(=O)[C@H]([C@@H](C)CC)N(C)C(=O)[C@H]([C@@H](C)CC)NC(=O)[C@@H]2[C@@H](C)CCN2C1=O  heat capacity change (Platelet-derived growth factor receptor beta, extracellular domain (PDGFRB, Homo sapiens, UniProt P09619); SPR van't Hoff; concentration not given, 25 °C): 1.04 kcal/(K·mol)
CNS(=O)(=O)Nc1nccc(Cc2c(C)c3ccc(Oc4ncccc4F)cc3oc2=O)c1F  remaining binding (PDGFRB; cell-free assay, competition with immobilised ligand; 10 µM): 100%
CC(C)=CC1OC(C)(C)C2C=C3C(=O)C(Cl)=CC(O)C3C3C(O)C4OC4C(=O)C132 (stereo not drawn)  remaining binding (PDGFRB; cell-free assay, competition with immobilised ligand; 10 µM): 100%
CCn1cc(C(=O)O)c(=O)c2c(N)c(F)c(NC3CCCCC3)cc21  inhibition (PDGFRB; kinase activity; 0.1 µM, together with: ATP at Km): -7.4%
CNc1ccc(-c2n[nH]c3c2CCN(C(=O)c2ccccc2)C3)cc1  remaining binding (PDGFRB; cell-free assay, competition with immobilised ligand; 10 µM): 3.9%
C=CC(=O)N1Cc2nc(-c3cc(-c4cc(Cl)cnc4Cl)c(F)cc3F)n(-c3ccncn3)c2C1  inhibition (PDGFRB; cell-free assay, inhibitor; 1 µM): 1.7%
O=C=[N][Ru-4]123([n]4c5ccc(O)cc5c5c6c(c7cc(F)c[n+]1c7c54)C(=O)NC6=O)[S+]1CC[S+]2CC[S+]3CC1 (stereo not drawn)  remaining activity (PDGFRB; enzyme activity; 100 nM, human enzyme, together with: 10 µM ATP; relative to: untreated): 107%
C=C1C[C@]2(C(=O)OC)C=C(C(=O)Nc3cccc(C(=O)Nc4ccc(Nc5nccc(-c6cccnc6)n5)c(C)c4)c3)C(=O)[C@H]1C2  remaining binding (PDGFRB; binding, competition with immobilised ligand; 1 µM): 81%
C=CC(=O)Nc1cccc(-c2cnc3[nH]cc(C(=O)NC(C)(C)C)c3n2)c1  inhibition (PDGFRB; kinase activity; 0.1 µM): 15% and 23%
COCC12C(=O)NC3C4(C(OC)CC1O)C1CC5(O)C(OC)C(O)C(OC(C)=O)(C1C5OC(=O)c1ccccc1)C3(O)C(OC)C24 (stereo not drawn)  remaining activity (PDGFRB; kinase activity, inhibitor, ProQinase kinase profiling; 25 µM; relative to: control): 101% and 108%
O=C(Cc1ccc(OCc2ccccc2)cc1)NC1(C(=O)O)CCN(C(=O)c2ccc(-c3cccc(Cl)c3)cc2)CC1  activity vs control (PDGFRB; enzyme activity, inhibitor; 10 µM): 114%
C=CC(=O)N1CCc2ccc(-n3c(=O)ccc4cnc5ccc(-c6cnn(C)c6)cc5c43)cc21  remaining binding (PDGFRB; KINOMEscan; 1 µM; relative to: DMSO control): 66%
CN1CCN(Cc2ccc(-c3ccc(CO[C@H]4CCC[C@@H]4NC(=O)c4cc(-c5cnn(C)c5)cnc4N)cc3)cc2)CC1  inhibition (PDGFRB; enzyme activity, inhibitor; 0.1 µM): 4%
COc1c(Cl)cccc1Nc1c(-c2ccncc2C#C[C@@]2(C)CCCN2C(=O)/C=C/CN(C)C)[nH]c2c1C(=O)NCC2  remaining binding (PDGFRB; cell-free assay, competition with immobilised ligand; 3 µM): 86%
C=C1CCCCCCCCCC(CO)C1=O (stereo not drawn)  remaining signal (PDGFRB; cell-free assay; 10 µM): 100%
COc1c(OCCCN2CCOCC2)ccc2c1N=C(NC(=O)c1cnc(N)nc1)N1CCN=C21  remaining activity (PDGFRB; kinase activity, inhibitor; 1 µM; relative to: untreated control): 99%
Cc1cccc(O[C@H]2CCC[C@@H](C(C)CNCc3ccncc3)C2)c1 (relative stereo)  inhibition (PDGFRB; enzyme activity, inhibitor; 10 µM): -2%
NC(=O)C[C@H]1CCc2sc3ncnc(O[C@H]4CC[C@H](N5CCOCC5)CC4)c3c21  inhibition (PDGFRB; enzyme activity, inhibitor; 10 µM): 5%
CCN1CCN(Cc2ccc(C(=O)Nc3ccc(C)c(NCc4cnc5[nH]ccc5c4OC)c3)cc2C(F)(F)F)CC1  remaining binding (PDGFRB; binding, competition with immobilised ligand; 1 µM): 0%
O=c1c(-c2ccc(Cl)c(CN3CCOCC3)c2)coc2cc(O)ccc12  remaining activity (PDGFRB; enzyme activity, inhibitor; 1 µM): 100%
